Assay results of several laboratories.
Numbers after ± are the reported error.

Under “tissue uptake ratio”, `CCCC[C@H](NC(=O)CNC(=O)CNC(=O)c1ccc(NN)nc1)C(=O)N[C@H]1CC(=O)NCCCC[C@@H](C(N)=O)NC(=O)[C@H](Cc2c[nH]c3ccccc23)NC(=O)[C@H](CCCNC(=N)N)NC(=O)[C@@H](Cc2ccccc2)NC(=O)[C@H](Cc2c[nH]cn2)NC1=O` [technetium-99m labelled] is recorded as 34.5 (C57 mouse, B16/F1 melanoma-bearing; intravenous, 2 h; baseline: tumour over lung).
Under “tumour to tissue ratio”, `N=C(N)NCCC[C@@H]1NC(=O)[C@H](CCCCNC(=O)CC[C@H](NC(=O)CCOCCOCCOCCOCCNC(=O)CN2CCN(CC(=O)O)CCN(CC(=O)O)CCN(CC(=O)O)CC2)C(=O)NCCCC[C@@H]2NC(=O)[C@@H](Cc3ccccc3)NC(=O)[C@H](CC(=O)O)NC(=O)CNC(=O)[C@H](CCCNC(=N)N)NC2=O)NC(=O)[C@@H](Cc2ccccc2)NC(=O)[C@H](CC(=O)O)NC(=O)CNC1=O` [indium-111 labelled] is recorded as 1.92 ± 0.15 (athymic nude mice, female, U-87 MG glioma xenograft, tumour and liver; intravenous, 1 h; baseline: tumour over liver).
`N=C(N)NCCC[C@@H]1NC(=O)[C@H](CCCCNC(=O)CNC(=O)CNC(=O)CNC(=O)CC[C@H](NC(=O)c2ccc(NN=Cc3ccccc3S(=O)(=O)O)nc2)C(=O)NCC(=O)NCC(=O)NCC(=O)NCCCC[C@@H]2NC(=O)[C@@H](Cc3ccccc3)NC(=O)[C@H](CC(=O)O)NC(=O)CNC(=O)[C@H](CCCNC(=N)N)NC2=O)NC(=O)[C@@H](Cc2ccccc2)NC(=O)[C@H](CC(=O)O)NC(=O)CNC1=O` [technetium-99m labelled] — result for “tumour to tissue ratio”: 5.57 ± 0.69 (athymic nu/nu mouse, female, MDA-MB-435 xenograft; intravenous, 120 min; baseline: tumour over muscle).
For `CCCC[C@H](NC(=O)CCCCCCCNC(=O)c1ccc(NN)nc1)C(=O)N[C@H]1CC(=O)NCCCC[C@@H](C(N)=O)NC(=O)[C@H](Cc2c[nH]c3ccccc23)NC(=O)[C@H](CCCNC(=N)N)NC(=O)[C@@H](Cc2ccccc2)NC(=O)[C@H](Cc2c[nH]cn2)NC1=O` [technetium-99m labelled], the uptake was 1.05 ± 0.07 %ID/g (C57 mouse, B16/F1 melanoma, kidneys; intravenous, 24 h).
For `COc1cc(OC)cc(C2=C3c4ccccc4C(c4ccc(NC(=S)S[C@@H]5O[C@H](CO)[C@@H](O)[C@H](O)[C@H]5O)cc4)=[N+]3[B-](F)(F)n3c2c2ccccc2c3-c2ccc(NC(=S)NCCOCCOCCOCCC(=O)N[C@@H](CC(C)C)C(=O)N[C@@H](C)C(=O)N[C@@H](CCCNC(=N)N)C(=O)N[C@@H](CC(C)C)C(=O)N[C@@H](CC(C)C)C(=O)N[C@H](C(N)=O)[C@@H](C)O)cc2)c1`, “fluorescence quantum yield” read 0.47 (DMSO; baseline: methylene blue).
For `N=C(N)NCCC[C@@H]1NC(=O)[C@H](CCCCNC(=O)CCOCCOCCOCCOCCNC(=O)CN2CCN(CC(=O)O)CCN(CC(=O)O)CCN(CC(=O)O)CC2)NC(=O)[C@@H](Cc2ccccc2)NC(=O)[C@H](CC(=O)O)NC(=O)CNC1=O` [indium-111 labelled], “tumour to muscle ratio” read 9.5 ± 1.31 (female athymic nude mouse; intravenous, 3 µCi, 4 h, U-87 MG glioma xenograft; baseline: tumour over muscle).
For `CCCC[C@H](NC(=O)CNC(=O)[C@H](CO)NC(=O)CNC(=O)c1ccc(NN)nc1)C(=O)N[C@H]1CC(=O)NCCCC[C@@H](C(N)=O)NC(=O)[C@H](Cc2c[nH]c3ccccc23)NC(=O)[C@H](CCCNC(=N)N)NC(=O)[C@@H](Cc2ccccc2)NC(=O)[C@H](Cc2c[nH]cn2)NC1=O` [technetium-99m labelled], the uptake was 0.15 ± 0.05 %ID/g (C57 mouse, B16/F1 melanoma, lung; intravenous, 2 h).
For `CSCC[C@H](NC(=O)[C@H](CC(C)C)NC(=O)[C@H](Cc1c[nH]cn1)NC(=O)CNC(=O)[C@@H](NC(=O)[C@H](C)NC(=O)[C@H](Cc1c[nH]c2ccccc12)NC(=O)[C@H](CCC(N)=O)NC(=O)CCCCCNC(=O)CNC(=O)CNC(=O)CNC(=O)CSC(C)=O)C(C)C)C(N)=O` [technetium-99m labelled], the tissue uptake was 18.2 ± 2.27 %ID/g (healthy Swiss mouse, small intestine, contents removed; intravenous, 18.5 MBq, 90 min).
Under “tumour to tissue ratio”, `N=C(N)NCCC[C@@H]1NC(=O)[C@H](CCCCNC(=O)CC[C@H](NC(=O)CCOCCOCCOCCOCCNC(=O)CC[C@H](NC(=O)CN2CCN(CC(=O)O)CCN(CC(=O)O)CCN(CC(=O)O)CC2)C(=O)NCCOCCOCCOCCOCCC(=O)N[C@@H](CCC(=O)NCCCC[C@@H]2NC(=O)[C@@H](Cc3ccccc3)NC(=O)[C@H](CC(=O)O)NC(=O)CNC(=O)[C@H](CCCNC(=N)N)NC2=O)C(=O)NCCCC[C@@H]2NC(=O)[C@@H](Cc3ccccc3)NC(=O)[C@H](CC(=O)O)NC(=O)CNC(=O)[C@H](CCCNC(=N)N)NC2=O)C(=O)NCCCC[C@@H]2NC(=O)[C@@H](Cc3ccccc3)NC(=O)[C@H](CC(=O)O)NC(=O)CNC(=O)[C@H](CCCNC(=N)N)NC2=O)NC(=O)[C@@H](Cc2ccccc2)NC(=O)[C@H](CC(=O)O)NC(=O)CNC1=O` [indium-111 labelled] is recorded as 6.09 ± 2.81 (athymic nude mice, female, U-87 MG glioma xenograft, tumour and liver; intravenous, 0.5 h; baseline: tumour over liver).
`CC(C)C[C@H](NC(=O)[C@@H]1CCCN1C(=O)[C@H](CCCCN)NC(=O)[C@@H](N)CO)C(=O)N1CCC[C@H]1C(=O)N[C@@H](CCC(=O)O)C(=O)N[C@H](C(=O)N[C@H](C(=O)N[C@@H](CC(=O)O)C(=O)N[C@@H](CCC(=O)O)C(=O)N[C@@H](Cc1ccc(O)cc1)C(=O)N[C@@H](Cc1cn(CCOCCOCCOCCNC(=O)CCc2ccc(O)c(CN(CCN(CC(=O)O)Cc3cc(CCC(=O)NCCCC[C@H](NC(=O)N[C@@H](CCC(=O)O)C(=O)O)C(=O)O)ccc3O)CC(=O)O)c2)nn1)C(=O)O)[C@@H](C)O)C(C)C` [gallium-68 labelled] — result for “standardised uptake value”: 0.28 g/g (NMRI nu/nu mouse, LNCaP tumour, white adipose tissue; 10 MBq, high molar activity).
For `N=C(N)NCCC[C@@H]1NC(=O)[C@H](CCCCNC(=O)CNC(=O)CNC(=O)CNC(=O)CC[C@H](NC(=O)CCOCCOCCOCCOCCNC(=O)CC[C@H](NC(=O)CN2CCN(CC(=O)O)CCN(CC(=O)O)CCN(CC(=O)O)CC2)C(=O)NCCOCCOCCOCCOCCC(=O)N[C@@H](CCC(=O)NCC(=O)NCC(=O)NCC(=O)NCCCC[C@@H]2NC(=O)[C@@H](Cc3ccccc3)NC(=O)[C@H](CC(=O)O)NC(=O)CNC(=O)[C@H](CCCNC(=N)N)NC2=O)C(=O)NCC(=O)NCC(=O)NCC(=O)NCCCC[C@@H]2NC(=O)[C@@H](Cc3ccccc3)NC(=O)[C@H](CC(=O)O)NC(=O)CNC(=O)[C@H](CCCNC(=N)N)NC2=O)C(=O)NCC(=O)NCC(=O)NCC(=O)NCCCC[C@@H]2NC(=O)[C@@H](Cc3ccccc3)NC(=O)[C@H](CC(=O)O)NC(=O)CNC(=O)[C@H](CCCNC(=N)N)NC2=O)NC(=O)[C@@H](Cc2ccccc2)NC(=O)[C@H](CC(=O)O)NC(=O)CNC1=O` [indium-111 labelled], “tumour to tissue ratio” read 2.68 ± 0.69 (athymic nude mice, female, U-87 MG glioma xenograft, tumour and lungs; intravenous, 0.5 h; baseline: tumour over lungs).
The tissue ratio of `N=C(N)NCCC[C@@H]1NC(=O)[C@H](CCCCNC(=O)CNC(=O)CNC(=O)CNC(=O)CC[C@H](NC(=O)CNC(=O)CNC(=O)CNC(=O)[C@H](CCCCNC(=O)c2ccc(NN)nc2)NC(=O)c2ccc(NN)nc2)C(=O)NCC(=O)NCC(=O)NCC(=O)NCCCC[C@@H]2NC(=O)[C@@H](Cc3ccccc3)NC(=O)[C@H](CC(=O)O)NC(=O)CNC(=O)[C@H](CCCNC(=N)N)NC2=O)NC(=O)[C@@H](Cc2ccccc2)NC(=O)[C@H](CC(=O)O)NC(=O)CNC1=O` [technetium-99m labelled] is reported as 9.64 ± 0.46 (female athymic nude mice; intravenous, 1 h, U-87 MG glioma xenograft; baseline: tumour over muscle).

Some of these lines once more:
For `CCCC[C@H](NC(=O)CNC(=O)[C@H](CO)NC(=O)CNC(=O)c1ccc(NN)nc1)C(=O)N[C@H]1CC(=O)NCCCC[C@@H](C(N)=O)NC(=O)[C@H](Cc2c[nH]c3ccccc23)NC(=O)[C@H](CCCNC(=N)N)NC(=O)[C@@H](Cc2ccccc2)NC(=O)[C@H](Cc2c[nH]cn2)NC1=O` [technetium-99m labelled], the uptake was 0.15 ± 0.05 %ID/g (C57 mouse, B16/F1 melanoma, lung; intravenous, 2 h).
